Experimental data pooled from the literature.
Numbered parts are unrelated; each lists some results of a single study. Changes are numbered by the printed parent chain.

Sample 1 — target: CCNF, cyclin fold, Cln2 fusion (human); technique: yeast growth competition, sequencing; matrix: yeast; setting: strong parent motif; reference: not given; direction: higher = stronger binding
Parent: CDC6 docking peptide (human); TLKGRRLVFDNQL
`TLKGQRLVFDNQL [R5Q]`: “normalised enrichment score” 0.878.
For `TLKGRRLVFDNTL [Q12T]`, “normalised enrichment score” read 8.7.
`TLKGRRLVFDNQM [L13M]` — result for “normalised enrichment score”: 8.23.
`TLKGRRLVFDNWL [Q12W]`: “normalised enrichment score” 9.86.
`TLTGRRLVFDNQL [K3T]`: “normalised enrichment score” 8.73.
`TLKGRRGVFDNQL [L7G]`: “normalised enrichment score” 0.503.
`TLKTRRLVFDNQL [G4T]` — result for “normalised enrichment score”: 4.74.
For `HLKGRRLVFDNQL [T1H]`, “normalised enrichment score” read 9.29.
`TLGGRRLVFDNQL [K3G]` — result for “normalised enrichment score”: 6.26.
`TLKGRRLVFDKQL [N11K]`: “normalised enrichment score” 8.29.
Under “normalised enrichment score”, `TLKGARLVFDNQL [R5A]` is recorded as 0.78.
Under “normalised enrichment score”, `TLKGRRLVFDNQI [L13I]` is recorded as 7.96.

Sample 2 — technique: DHFR PCA, deep sequencing; matrix: yeast; with: (+)-ABA 2500 µM; reference: wild-type fitted maximum; direction: higher = stronger binding
Target: ABI1, truncated, D143A, DHFR fusion (Arabidopsis thaliana)
Setting: methotrexate growth selection, single substitutions
Parent: PYL1, truncated, DHFR fusion (Arabidopsis thaliana); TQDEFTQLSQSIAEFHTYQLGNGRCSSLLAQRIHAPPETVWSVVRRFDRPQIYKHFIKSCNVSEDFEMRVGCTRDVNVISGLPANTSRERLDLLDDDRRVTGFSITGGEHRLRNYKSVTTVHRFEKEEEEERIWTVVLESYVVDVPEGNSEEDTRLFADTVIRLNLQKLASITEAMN; partner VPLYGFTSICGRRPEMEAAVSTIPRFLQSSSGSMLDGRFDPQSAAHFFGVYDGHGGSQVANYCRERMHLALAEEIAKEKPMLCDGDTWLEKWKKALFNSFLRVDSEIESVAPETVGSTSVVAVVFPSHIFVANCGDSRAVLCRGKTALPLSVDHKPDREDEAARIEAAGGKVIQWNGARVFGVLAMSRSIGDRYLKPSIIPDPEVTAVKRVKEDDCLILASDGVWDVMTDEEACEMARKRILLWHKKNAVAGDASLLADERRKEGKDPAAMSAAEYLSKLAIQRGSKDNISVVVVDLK
Under “relative binding score”, `R111Y` is recorded as 72.6%.
For `G148Y`, “relative binding score” read 91.1%.
`E4G`: “relative binding score” 97.1%.
Under “relative binding score”, `A170H` is recorded as 86.1%.
`T106M` — result for “relative binding score”: 107%.
`T6W` — result for “relative binding score”: 99.3%.
For `D159C`, “relative binding score” read 77.2%.

Sample 3 — technique: RNA Bind-n-Seq; molecule type: RNA; matrix: in vitro; tested at: 365 nM; reference: no-protein control; direction: higher = stronger binding
Target: RNA binding protein fox-1 homolog 2, RRM domain, GST-SBP tag (RBFOX2, Homo sapiens, UniProt O43251-10, residues 100-194)
Setting: natural RNA segment, single round, ends assumed
Constant ends, left off below: GGGAGUUCUACAGUCCGACGAUC … UGGAAUUCUCGGGUGCCAA
Target sequence (chain): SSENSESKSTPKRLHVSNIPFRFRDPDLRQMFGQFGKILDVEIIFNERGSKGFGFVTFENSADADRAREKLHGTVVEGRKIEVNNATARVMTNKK
For `CGAGGCAGCUGACGAGGCAGCUGGCCCAGUCUUGGGAGUCUGCUCAGGACAGUGGUGGAGCUGGGUCUUGAACCCCAGUCUGCACCUAAAAAACUAAAGGAAAUGGAUUU`, “RBNS enrichment (R)” read 0.371.
For `GUCCUGACCAGAGUCUCAGUGGUCCUGACCCCCAAUGUGGGCAGGGGCUGGGCAGGAGGGUGGGGUCUGCUGUGGGUUCAGAGGACUCCACCUCCUGGCUGGUUUACCUG`, “RBNS enrichment (R)” read 0.555.
Under “RBNS enrichment (R)”, `CUGGCAAGACUCAGGGUCCUCAGUGGACAUGGUGUGGGUGACAUCAGAAGGGUGCCACAUCAGUCCCCUCCCCAACCUCAGUGACUGACAGAGGAUCCGGAUCUCAGAGC` is recorded as 0.324.
Under “RBNS enrichment (R)”, `AUUAUUAAGGAAUUAUUUAGAAACAAUGUGUCUAGUUUAAGAAAGUGGUUUUCAGUAUUGUGACAAUACAACGUUUUUACAAGGUUGUUUUCUACCACCAUAUUUUAAAG` is recorded as 0.287.
Under “RBNS enrichment (R)”, `UUGGGGUGGUGCUGGGUCAUUACUUCUGAGCCCCAGCCCCAAUCCAGAGAAGCGCUGUUGCCCGCCCUCCACCCACUAGGUGAACAGCAGGAUGCCCUGUUGGGGGCUUC` is recorded as 0.274.
`CACCUGGUCGGUGCACCAGUACCAGGUGGCCAUGAUGGUCAGGCCAAAGGUCAUCCCGGUCCACGGCAGGUCCCCUGUGUGGGGGUCUCGAAACAUGUGCAUGGCGUCUG` — result for “RBNS enrichment (R)”: 0.52.
For `AGUGCCUUACAAAUCCUAAGCUCAGAGAAAGUUAGCUCCAUUUCCGUUCCCAAGGGAGGGGCCUCUGAGGUCCUUCUGCCUUGUUGAUGAAGAGUGGUUGGUUGUAGAGC`, “RBNS enrichment (R)” read 0.298.
`UAAUGCAAAUGUUUCAAAACUGGGUUUCUGAUAUUUGUAAAUGUGUUUCUUUAUUAGAUAAGAGUGUAUUACCAUUAAAGUCAUUAGUAUAAUAUUGCUUUCAAAAAGAA`: “RBNS enrichment (R)” 0.637.
Under “RBNS enrichment (R)”, `AUUUCAACAUGAAAAUUAUGUCAGUUUAUAGAAAUAUUUAUUGUUCAAGGUCUGUAAUUGUAUUUCAAAAACGAUGUCGUAUUCAAGUUGUGAAGGGAUUUGUUUUGUCA` is recorded as 0.6.
Under “RBNS enrichment (R)”, `AGAGUCUUUAGAGAUUUGUUCACUCUCUGAGGGAUCCUCCUGGCUCUGCUUACAUACUUCCAGGGACGGUGAGCUCACGCUCUCUCCGGGCAGCCCUGUGAGUUUCCUAU` is recorded as 0.214.
For `UUGUUACUCAAUAUGUCUACUCAGAAUACGUUUACCCUCCGUCUUGAUUAGGUGGCCUUUUCUGUGCAGUUACUAAUCACAGGAAUUUGGUAGUAGUGAAAAUCAGGUUU`, “RBNS enrichment (R)” read 0.383.
`AAGCAGUCAAGCCACAGAAACCCAGCAUGUCCCUGUCACAAUCUCAUGGGCACCUUGAUCAUGUCUUAACCUUCCCUUAACCUUGGGGCUCCCAAGCCAGAGUCAAGGUC`: “RBNS enrichment (R)” 8.39.

Further values, each from its own experiment
With `PhoQ, residues 284 288 289 292 302 303 SLANKL` the fold induction was 5.51 (PhoP, residues 12 14 15 18 19 SQCLL (Escherichia coli, UniProt P23836); Sort-seq, measured: YFP reporter; E. coli; PhoQ-PhoP variant library, with: 10 µM Mg2+; reference: high Mg2+ state, higher = stronger signaling).

Excerpt of the above (sample 1):
For `HLKGRRLVFDNQL [T1H]`, “normalised enrichment score” read 9.29.
`TLGGRRLVFDNQL [K3G]` — result for “normalised enrichment score”: 6.26.
`TLKGRRLVFDKQL [N11K]`: “normalised enrichment score” 8.29.
